Results gathered from unrelated publications.
Numbered parts are unrelated; each lists some results of a single study.
Chain of UniProt P21802 (whole entry, looked up): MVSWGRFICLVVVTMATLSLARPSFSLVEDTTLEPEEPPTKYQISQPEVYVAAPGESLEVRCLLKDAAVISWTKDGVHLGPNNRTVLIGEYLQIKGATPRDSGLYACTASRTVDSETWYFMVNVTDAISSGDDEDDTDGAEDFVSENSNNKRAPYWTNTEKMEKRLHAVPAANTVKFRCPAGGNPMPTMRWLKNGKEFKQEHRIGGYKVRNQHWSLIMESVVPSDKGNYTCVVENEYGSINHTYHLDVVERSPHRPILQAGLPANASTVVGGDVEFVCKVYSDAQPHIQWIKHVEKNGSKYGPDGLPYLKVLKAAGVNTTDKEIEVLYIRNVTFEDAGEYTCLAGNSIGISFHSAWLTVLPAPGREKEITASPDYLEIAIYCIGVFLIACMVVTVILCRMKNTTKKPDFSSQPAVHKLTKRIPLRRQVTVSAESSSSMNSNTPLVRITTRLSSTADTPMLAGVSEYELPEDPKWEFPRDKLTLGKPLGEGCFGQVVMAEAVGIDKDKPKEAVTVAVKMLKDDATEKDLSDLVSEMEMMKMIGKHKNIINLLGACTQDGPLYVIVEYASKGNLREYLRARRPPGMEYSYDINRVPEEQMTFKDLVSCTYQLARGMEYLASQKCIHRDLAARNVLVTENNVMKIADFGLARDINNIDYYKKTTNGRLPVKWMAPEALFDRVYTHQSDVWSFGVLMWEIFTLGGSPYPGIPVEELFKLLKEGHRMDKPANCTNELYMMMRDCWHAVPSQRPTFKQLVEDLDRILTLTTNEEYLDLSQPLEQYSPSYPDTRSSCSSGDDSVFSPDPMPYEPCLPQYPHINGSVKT
Chain of UniProt Q9BUB5 (whole entry, looked up): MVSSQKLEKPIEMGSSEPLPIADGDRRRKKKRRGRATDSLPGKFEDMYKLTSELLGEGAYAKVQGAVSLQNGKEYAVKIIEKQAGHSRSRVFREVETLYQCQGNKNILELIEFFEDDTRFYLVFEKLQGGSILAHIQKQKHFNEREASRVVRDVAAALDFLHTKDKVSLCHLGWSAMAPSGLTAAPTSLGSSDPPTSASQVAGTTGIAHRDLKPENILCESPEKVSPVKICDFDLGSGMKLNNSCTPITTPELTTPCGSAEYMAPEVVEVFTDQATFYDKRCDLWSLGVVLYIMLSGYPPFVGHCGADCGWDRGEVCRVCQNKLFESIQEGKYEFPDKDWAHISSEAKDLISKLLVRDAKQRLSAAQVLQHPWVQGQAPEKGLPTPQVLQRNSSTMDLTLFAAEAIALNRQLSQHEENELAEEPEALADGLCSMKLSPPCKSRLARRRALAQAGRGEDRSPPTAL

Study 1 — technique: RNA Bind-n-Seq; form: RNA; matrix: in vitro; concentration: 15 pmol; setting: 4-mer, random 30-nt RNA, single round; with: 3 µM DMDA-PatA, 2 mM AMP-PNP; baseline: input library; direction: higher = stronger binding; measurement: 4-mer enrichment
Target: Eukaryotic initiation factor 4A-I (EIF4A1, Homo sapiens, UniProt P60842, residues 1-406, full length assumed)
Chain of UniProt P60842 (whole entry, looked up): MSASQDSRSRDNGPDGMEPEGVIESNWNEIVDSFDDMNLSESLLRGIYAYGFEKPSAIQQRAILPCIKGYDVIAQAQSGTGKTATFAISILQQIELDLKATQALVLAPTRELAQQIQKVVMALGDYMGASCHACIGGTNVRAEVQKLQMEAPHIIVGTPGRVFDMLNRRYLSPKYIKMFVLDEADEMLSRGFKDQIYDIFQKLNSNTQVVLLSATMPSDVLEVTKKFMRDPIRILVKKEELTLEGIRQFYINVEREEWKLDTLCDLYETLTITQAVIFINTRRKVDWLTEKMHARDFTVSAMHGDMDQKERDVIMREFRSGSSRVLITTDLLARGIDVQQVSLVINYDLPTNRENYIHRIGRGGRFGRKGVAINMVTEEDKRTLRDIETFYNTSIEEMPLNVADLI
Strand = ACAC; value = 0.526 fold
Strand = GAAU; value = 1.25 fold
Strand = GCGC; value = 1.01 fold
Strand = AGGG; value = 1.07 fold
Strand = AGUC; value = 0.839 fold
Strand = CAGU; value = 0.816 fold
Strand = GUGG; value = 1.66 fold
Strand = GGCU; value = 1.35 fold

Study 2 — technique: RNAcompete; form: RNA; matrix: in vitro; concentration: 20 nM; setting: 7-mer, probes averaged, single round; baseline: mean of 7-mers; direction: higher = stronger binding; measurement: 7-mer Z-score
Target: PABPC1L2, full length, GST fusion (mouse, UniProt A0ABA7IW68)
Target sequence (chain): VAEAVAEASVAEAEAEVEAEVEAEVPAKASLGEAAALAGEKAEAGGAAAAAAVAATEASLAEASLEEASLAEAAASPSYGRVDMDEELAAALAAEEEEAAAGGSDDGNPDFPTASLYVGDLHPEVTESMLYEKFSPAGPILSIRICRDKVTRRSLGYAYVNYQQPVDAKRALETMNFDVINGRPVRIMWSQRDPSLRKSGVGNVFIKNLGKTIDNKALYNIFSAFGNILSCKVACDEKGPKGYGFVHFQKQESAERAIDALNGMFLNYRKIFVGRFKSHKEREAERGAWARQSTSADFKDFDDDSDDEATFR
Strand = GCAAGCU; value = -0.264
Strand = GUAUAUG; value = -0.135
Strand = CACCUCG; value = -0.228
Strand = CACGAUU; value = -0.0138
Strand = UCGUUCA; value = -0.454
Strand = AGUGUGU; value = -0.213
Strand = CUAAGCU; value = -0.329
Strand = CAGGUAU; value = -0.0754

Mixed results
SMILES = CN(C)C(=O)Cn1cc(-c2nc([C@@](C)(c3ccc(-c4cnc(N)nc4)cc3)C3CC3)no2)cn1; tested on = MKNK1 (Homo sapiens, UniProt Q9BUB5); assay = cell-free assay, competition with immobilised ligand; conditions = 1 µM; measurement = remaining binding; value = 85%
SMILES = CCOC(=O)[C@@H]1CSCC(=O)N[C@H](CC)C(=O)N(C)[C@@H](C)C(=O)N[C@H](CC(C)C)C(=O)N2CCC[C@H]2C(=O)N(CC)CC(=O)N[C@@H](CC(C)C)C(=O)N(C)[C@@H](C)C(=O)N[C@@H](CC(C)C)C(=O)N1C; system = hydrocarbon/water; measurement = logD; value = -0.348
SMILES = CCCOc1ccc([C@H]2[C@H](C(=O)O)[C@@H](c3ccc4c(c3)OCO4)CN2CC(=O)Nc2c(CC)cccc2CC)cc1; tested on = FGFR2 (Homo sapiens, UniProt P21802); assay = cell-free assay, competition with immobilised ligand; conditions = 1 µM; measurement = remaining binding; value = 100%

Repeated from above (study 2):
Strand = UCGUUCA; value = -0.454
Strand = AGUGUGU; value = -0.213
